Published values gathered from unrelated publications.
Lines come from different studies, so protocols differ.
Organism: Bacillus subtilis

| SMILES | assay | test system | setting | MIC |
| --- | --- | --- | --- | --- |
| CC(=O)N[C@@H](CC(C)C)C(=O)N[C@H]1CSSC[C@@H](C(=O)N2CCC[C@H]2C(N)=O)NC(=O)[C@H]([C@@H](C)O)NC(=O)[C@H](C(C)C)NC(=O)[C@H]([C@@H](C)O)NC(=O)[C@H](CCCCN)NC(=O)[C@H](CC(C)C)NC(=O)[C@H](Cc2ccccc2)NC(=O)[C@H](Cc2ccc(O)cc2)NC(=O)[C@H](CC(C)C)NC(=O)[C@H](CCCCN)NC(=O)[C@H](Cc2ccccc2)NC(=O)[C@H](CCCNC(=N)N)NC(=O)[C@H](CCC(N)=O)NC(=O)[C@H](CC(C)C)NC(=O)[C@H](CCCCN)NC(=O)[C@@H]2CCCN2C(=O)[C@H](CCCCN)NC(=O)[C@H](C(C)C)NC(=O)[C@H](CC(N)=O)NC(=O)[C@H](Cc2ccc(O)cc2)NC(=O)[C@H]([C@@H](C)O)NC1=O | broth dilution | CGMCC strain | 24 h | 2.5 to 5 µM |
| c1ccc(CCNC2CCCc3c2[nH]c2ccc(C4CCCCC4)cc32)cc1 (centres unmarked) | broth microdilution | 168 |  | 2 µg/mL |
| CC(C)C[C@H](NC(=O)[C@H](CCCCN)NC(=O)[C@H](C)NC(=O)[C@H](CC(C)C)NC(=O)[C@H](CCCCN)NC(=O)[C@H](CCC(N)=O)NC(=O)[C@H](CCCCN)NC(=O)[C@H](CC(C)C)NC(=O)[C@H](CCCCN)NC(=O)[C@H](CCC(N)=O)NC(=O)[C@H](CC(C)C)NC(=O)[C@H](CCCCN)NC(=O)[C@H](C)NC(=O)[C@H](CCCCN)NC(=O)[C@H](CC(C)C)NC(=O)[C@H](CCCCN)NC(=O)[C@H](C)NC(=O)[C@H](CC(C)C)NC(=O)[C@H](CCCCN)NC(=O)[C@H](CCC(N)=O)NC(=O)[C@@H](N)CCCCN)C(N)=O | broth microdilution | ATCC 6633 | 24 h | 6.2 µM |
| CC[C@H](C)[C@H](N)C(=O)NCC(=O)N[C@@H](CC(C)C)C(=O)N[C@H](CCC(=O)O)C(=O)N[C@H](C(=O)N[C@H]1CCCCNC(=O)[C@H](CC(N)=O)NC(=O)[C@@H](CC(=O)O)NC(=O)[C@H](Cc2c[nH]cn2)NC(=O)[C@@H](Cc2ccccc2)NC(=O)[C@H]([C@@H](C)CC)NC(=O)[C@@H](CCCN)NC1=O)[C@@H](C)CC |  | 168 | 18 h, 37 °C, 0.3 mM ZnSO4 LB | > 64 µg/mL |
| CC(C)C[C@H](NC(=O)[C@@H](NC(=O)[C@H](CCCNC(=N)N)NC(=O)[C@H](CCC(N)=O)NC(=O)[C@H](Cc1ccccc1)NC(=O)[C@H](Cc1ccc(O)cc1)NC(=O)[C@H](CC(N)=O)NC(=O)[C@H](Cc1c[nH]c2ccccc12)NC(=O)[C@@H](NC(=O)[C@H](CCCNC(=N)N)NC(=O)[C@H](CCCCN)NC(=O)[C@@H](N)Cc1ccccc1)C(C)C)C(C)C)C(=O)N[C@H](C(=O)N[C@@H](CCCCN)C(=O)N[C@@H](CCCCN)C(=O)N[C@@H](Cc1ccc(O)cc1)C(N)=O)C(C)C | broth dilution | KCTC 3068 |  | < 3.1 µM |
| CN[C@H](CC(C)C)C(=O)N[C@H]1C(=O)N[C@@H](CC(N)=O)C(=O)N[C@H]2C(=O)N[C@H]3C(=O)N[C@H](C(=O)N[C@H](C(=O)NCc4cn(CC(=O)N[C@H](C(=O)N[C@@H](CCN)C(=O)N[C@H]5CCNC(=O)[C@H]([C@@H](C)O)NC(=O)[C@H](CCN)NC(=O)[C@H](CCN)NC(=O)[C@H](CC(C)C)NC(=O)[C@@H](CC(C)C)NC(=O)[C@H](CCN)NC5=O)[C@@H](C)O)nn4)c4cc(O)cc(O)c4-c4cc3ccc4O)[C@H](O)c3ccc(c(Cl)c3)Oc3cc2cc(c3O[C@@H]2O[C@H](CO)[C@@H](O)[C@H](O)[C@H]2O[C@H]2C[C@](C)(N)[C@H](O)[C@H](C)O2)Oc2ccc(cc2Cl)[C@H]1O | broth microdilution | 168, cation-adjusted Mueller-Hinton broth |  | 0.2 µM |
| C=C1NC(=O)C2CSCC3NC(=O)C(CSC(C)C(NC(=S)C(Cc4cnc[nH]4)NC(=O)c4csc(C(C)NC(C)=O)n4)C(=O)N[C@H](CC(C)C(=O)NC(=O)CC(C(=O)O)NC(=O)C(C)NC3=O)C(=O)N2)NC(=O)[C@@H]2CCCN2C(=O)[C@@H](CC(C)C)NC1=O (some centres unmarked) | bacterial growth | 168 |  | > 32 µg/mL |
| CC[C@H](C)[C@@H]1NC(=O)[C@@H]2CCCN2C(=O)[C@H](C)NC(=O)[C@H](CC(C)C)NC(=O)[C@@H]2CCCN2C(=O)[C@H](C)NC(=O)[C@@H]2CSSC[C@H](NC(=O)[C@H](C)NC(=O)[C@H](C)NC(=O)[C@H](Cc3ccc(O)cc3)NC(=O)[C@@H]3CCCN3C(=O)CNC(=O)[C@H](Cc3c[nH]c4ccccc34)NC1=O)C(=O)N[C@@H](CC(C)C)C(=O)N[C@@H](CO)C(=O)N[C@@H](C)C(=O)N[C@H]1CSSC[C@H](NC(=O)[C@H](C(C)C)NC(=O)[C@@H]3CCCN3C(=O)CNC(=O)CNC(=O)CNC(=O)[C@H](C)NC(=O)[C@H](C)NC(=O)[C@H](CC(C)C)NC1=O)C(=O)N[C@@H](CC(C)C)C(=O)N[C@@H](C)C(=O)N[C@@H](C(C)C)C(=O)N2 |  | ATCC 6633 |  | > 128 µg/mL |
| CC(=O)N[C@@H](CC(C)C)C(=O)N[C@H]1CSSC[C@@H](C(=O)N2CCC[C@H]2C(N)=O)NC(=O)[C@H](CCCCN)NC(=O)[C@H](C(C)C)NC(=O)[C@H](CCCCN)NC(=O)CNC(=O)[C@H](CC(C)C)NC(=O)[C@H](Cc2ccccc2)NC(=O)[C@H](CCCCN)NC(=O)[C@H](CC(C)C)NC(=O)[C@H](CCC(=O)O)NC(=O)[C@H](Cc2ccccc2)NC(=O)[C@H](CCCNC(=N)N)NC(=O)[C@H](CCCCN)NC(=O)[C@H](CC(C)C)NC(=O)[C@H](CC(=O)O)NC(=O)[C@@H]2CCCN2C(=O)[C@H](CCCCN)NC(=O)[C@H](C(C)C)NC(=O)[C@H](CCCCN)NC(=O)[C@H](CCCCN)NC(=O)[C@H](CCCCN)NC1=O | broth dilution | CGMCC strain | 24 h | < 1.25 µM |
| CC[C@H](C)[C@@H]1NC(=O)[C@H](C(C)C)NC(=O)[C@H](C(C)C)NC(=O)[C@H](CC(C)C)NC(=O)C[C@@H](C(=O)N[C@@H](Cc2c[nH]c3ccccc23)C(=O)N[C@@H](CC(N)=O)C(=O)N[C@@H](C)C(=O)N2CCC[C@H]2C(=O)NCC(=O)N[C@@H](Cc2c[nH]c3ccccc23)C(=O)N[C@@H](Cc2ccccc2)C(=O)O)NC(=O)[C@H](C)NC(=O)[C@H](CCC(N)=O)NC(=O)[C@H](C(C)C)NC1=O |  | ATCC 6051 |  | > 32 µg/mL |
| C#CCNC(=O)[C@H]1NC(=O)[C@H]2NC(=O)[C@H](NC(=O)[C@@H]3NC(=O)[C@H](CC(N)=O)NC(=O)[C@H](NC(=O)[C@@H](CC(C)C)NC)[C@H](O)c4ccc(c(Cl)c4)Oc4cc3cc(c4O[C@@H]3O[C@H](CO)[C@@H](O)[C@H](O)[C@H]3O[C@H]3C[C@](C)(N)[C@H](O)[C@H](C)O3)Oc3ccc(cc3Cl)[C@H]2O)c2ccc(O)c(c2)-c2c(O)cc(O)cc21 | broth microdilution | 168, cation-adjusted Mueller-Hinton broth |  | 0.084 µM |
| CC[C@H](C)[C@H](N)C(=O)N[C@@H](C)C(=O)N[C@@H](CC(C)C)C(=O)N[C@H](CCC(=O)O)C(=O)N[C@H](C(=O)N[C@H]1CCCCNC(=O)[C@H](CC(N)=O)NC(=O)[C@@H](CC(=O)O)NC(=O)[C@H](Cc2c[nH]cn2)NC(=O)[C@@H](Cc2ccccc2)NC(=O)[C@H]([C@@H](C)CC)NC(=O)[C@@H](CCCN)NC1=O)[C@@H](C)CC |  | 168 | 18 h, 37 °C, 0.3 mM ZnSO4 LB | > 64 µg/mL |
| C#CCOc1ccc(CN[C@@]2(C)C[C@H](O[C@H]3[C@H](Oc4c5cc6cc4Oc4ccc(cc4Cl)[C@@H](O)[C@@H](NC(=O)[C@@H](CC(C)C)NC)C(=O)N[C@@H](CC(N)=O)C(=O)N[C@H]6C(=O)N[C@H]4C(=O)N[C@H](C(=O)N[C@H](C(=O)N[C@@H](CCCNC(=N)N)C(N)=O)c6cc(O)cc(O)c6-c6cc4ccc6O)[C@H](O)c4ccc(c(Cl)c4)O5)O[C@H](CO)[C@@H](O)[C@@H]3O)O[C@@H](C)[C@H]2O)cc1OC | broth microdilution | 168, cation-adjusted Mueller-Hinton broth |  | 0.009 µM |
| CC[C@H](C)[C@H](NC(=O)[C@H](Cc1c[nH]c2ccccc12)NC(=O)[C@H](Cc1ccc(O)cc1)NC(=O)[C@H](CCCCN)NC(=O)[C@H](CC(C)C)NC(=O)[C@H](CO)NC(=O)[C@@H](N)Cc1ccccc1)C(=O)N[C@@H](CCCNC(=N)N)C(=O)N[C@@H](Cc1ccc(O)cc1)C(=O)N[C@@H](CCCCN)C(=O)N[C@@H](CCCNC(=N)N)C(=O)N[C@@H](CCC(N)=O)C(=O)NCC(=O)N[C@@H](C)C(=O)N[C@@H](C)C(=O)N[C@@H](CCCNC(=N)N)C(=O)N[C@@H](Cc1ccccc1)C(N)=O | broth dilution | KCTC 3068 |  | 6.3 µM |

Repeated from above:
| SMILES | assay | test system | setting | MIC |
| --- | --- | --- | --- | --- |
| C#CCNC(=O)[C@H]1NC(=O)[C@H]2NC(=O)[C@H](NC(=O)[C@@H]3NC(=O)[C@H](CC(N)=O)NC(=O)[C@H](NC(=O)[C@@H](CC(C)C)NC)[C@H](O)c4ccc(c(Cl)c4)Oc4cc3cc(c4O[C@@H]3O[C@H](CO)[C@@H](O)[C@H](O)[C@H]3O[C@H]3C[C@](C)(N)[C@H](O)[C@H](C)O3)Oc3ccc(cc3Cl)[C@H]2O)c2ccc(O)c(c2)-c2c(O)cc(O)cc21 | broth microdilution | 168, cation-adjusted Mueller-Hinton broth |  | 0.084 µM |
